Published values of several laboratories.
Compare with care: the assays were run in different laboratories. Several values in a cell are separate wells, animals, samples, runs or records. ± gives the spread as reported.

| SMILES | assay | system | setting | scale | endpoint | value |
| --- | --- | --- | --- | --- | --- | --- |
| O=C(Nc1nc2cccc(-c3ccc(CN4CCS(=O)(=O)CC4)cc3)n2n1)C1CC1 | refers to: abdominal discomfort | rheumatoid arthritis patients | oral, 30 mg once daily, 4 weeks, any relatedness |  | patients with adverse event | 0% |
| CCOc1c([C@H](C)n2nc(C)c3c(N)ncnc32)cc(Cl)c(F)c1[C@@H]1CNC(=O)C1 |  | patients with indolent lymphoma, plasma | oral, 30 mg, day 15, monotherapy |  | Cmax | 2.91 µM |
| Cc1cc(-c2nccc3c2ccn3CC(=O)Nc2ccc(-c3cnccn3)cn2)ccn1 |  | human | 20 mg once daily, multiple ascending dose |  | subjects with cardiac disorders | 0% |
| Cc1ccc([C@@H]2O[C@H](CO)[C@@H](O)[C@H](O)[C@H]2O)cc1Cc1ccc(-c2ccc(F)cc2)s1 |  | Japanese type 2 diabetes patients | 25 mg, day 15, 24 h urine collection | reference: baseline | urinary sodium excretion change | 51.8 mEq |
| CC(C)n1c(C2CCNCC2)nc2c([N+](=O)[O-])c(Br)c(Br)cc21 |  | human | oral, 125 mg single dose, median |  | renal clearance | 12.3 mL/min |
| CC[C@H](C)[C@H](NC(=O)CN)C(=O)N[C@@H](C)C(=O)N[C@@H](CC(=O)O)C(=O)N[C@@H](C)C(=O)N[C@H](C(=O)N[C@@H](CCCCN)C(=O)N[C@@H](CCCCN)C(=O)N[C@H](C(=O)N[C@@H](C)C(=O)N[C@@H](CCCCN)C(=O)N[C@@H](C)C(=O)N[C@@H](CC(C)C)C(=O)NCC(N)=O)[C@@H](C)CC)[C@@H](C)CC | circular dichroism | 10 mM SDS | 100 µM |  | helix content | 45% |
| C[C@@H](N)C1CCN(S(=O)(=O)c2cccc3cnccc23)CC1 | refers to: Tachycardia | healthy volunteers | 250 mg, fasted |  | TEAE incidence | 0% |
| COc1ccc2cc(CCC[18F])ccc2c1 |  | n-octanol/0.1 M phosphate buffer | pH 7.4, 25 °C, per radiosynthesis batch |  | partition coefficient | 296 and 348 and 232 |
| Cc1ccc(Sc2ccccc2N2CCNCC2)c(C)c1 | refers to: postural dizziness | healthy adult women | oral, 5 mg daily, 12 days |  | participants with TEAE | 0% |
| CC[C@H](C)[C@@H]1NC(=O)[C@@](C)(NC(=O)[C@H](CCCNC(=N)N)NC(=O)[C@H](CC(C)C)NC(=O)[C@@H](NC(=O)[C@H](CCC(N)=O)NC(=O)[C@H](CC(C)C)NC(C)=O)[C@@H](C)O)CCCC=CCCC[C@@](C)(C(=O)N[C@@H](CC(C)C)C(=O)N[C@@H](Cc2ccc3ccccc3c2)C(N)=O)NC(=O)[C@H](CCCNC(=N)N)NC(=O)[C@H](CCC(N)=O)NC1=O | LC-MS | BALB/c nude mouse, plasma | 0 min |  | remaining compound | 100% |
| Cc1cc([C@H]2C[C@H]3[C@@H](C)SC(N)=N[C@@]3(c3ccc(F)cc3F)CO2)on1 |  | male 129/SVE mouse, brain | subcutaneous, 50 mg/kg, 1 h |  | brain concentration | 20.4 µM |
| O=C1NCCc2nc(OCc3cccc(F)c3)ccc21 | refers to: skin color | Sprague-Dawley rat male | oral, 100 mg/kg, 1 h | direction not given | Irwin test score | 0 |
| N#Cc1ccc2c(c1)[C@H]1CCCN(C(=O)c3ccc4[nH]cnc4c3)[C@H]1C2 |  | human | 20 mg, day 7 |  | median ACTH level | 9.5 pmol/L |
| C[C@H](N[C@@H](CCc1ccccc1)C(=O)O)C(=O)N1[C@H](C(=O)O)C[C@H]2CCCC[C@@H]21 |  | processed human plasma | 30 pg/mL, 48 h, 4 °C | reference: nominal | autosampler stability | 96.1 ± 9% |
| CN1CCN(c2cccc3c2CCN(C(=O)/C=C/c2c(-n4cnnn4)ccc(Cl)c2F)[C@@H]3C(=O)Nc2ccc(C(=O)O)cc2)C(=O)C1 |  | healthy human subjects | intravenous infusion, 10 mg/h, 2 h |  | subjects with any adverse event | 0% |
| O=C(Nc1cnccc1Cl)N1CCN(Cc2ccc3c(c2)OC(F)(F)O3)CC1 | refers to: Headache | human healthy young men | 25 mg, multiple dose |  | adverse event incidence | 16.7% |
| CC(=O)O[C@H]1C(=O)[C@@]2(C)[C@H]([C@H](OC(=O)c3ccccc3)[C@]3(O)C[C@H](OC(=O)[C@H](O)[C@@H](NC(=O)c4ccccc4)c4ccccc4)C(C)=C1C3(C)C)[C@]1(OC(C)=O)CO[C@@H]1C[C@@H]2O | refers to: Rash | patients with advanced solid tumours | intravenous, dose not given, grade 3 and 4, possibly related to drug |  | adverse event incidence | 4% |
| COC(=O)C1=CO[C@@H](O[C@@H]2O[C@H](CO)[C@@H](O)[C@H](O)[C@H]2O)[C@@H]2C(CO)=CC[C@H]12 | post-procedure stability | rat plasma | 8 ng/mL, 1 h, room temperature |  | accuracy | 89.1% |
| Cc1cc(NC2CCN(C(=O)OC3CCN(C(=O)/C=C/CN(C)C)C3)CC2)n2ncc(C(C)C)c2n1 (centres unmarked) | Phase I dose escalation CTCAE v4.0, refers to: Fatigue | patients with advanced solid tumours | dose not given, TIW dosing any grade |  | patients with adverse event | 9% |

| SMILES | assay | system | setting | scale | endpoint | value |
| --- | --- | --- | --- | --- | --- | --- |
| COc1ccc2c(c1)CN(C(=O)CCN1CCC(Cc3ccccc3)CC1)CC[S@@+]2[O-] | telemetry | conscious dog | intravenous, 4 mg/kg, 4 h |  | heart rate | 59 ± 5 beats/min |
| CCc1cc(C(=O)NC)c2nccc(N3CCc4c(cc(Cn5ccnc5)cc4-c4cn(C)nc4C(F)(F)F)C3=O)c2c1 |  | Sprague Dawley rats | oral, 100 mg/kg once daily, 7 days |  | serum DBIL level | 0.7 ± 0.13 µmol/L |
| O=C(O)CCC(=O)O.[2H]C([2H])([2H])Oc1cc(C)c2[nH]ccc2c1CN1CC[C@@H](C2CC2)C[C@H]1c1ccc(C(=O)O)cc1 | multiple ascending dose | healthy Chinese subjects | 200 mg once daily |  | subjects with elevated LDL TEAE | 12.5% |
| O=C(Nc1ccc(OC(F)(F)Cl)cc1)c1cnc(N2CC[C@@H](O)C2)c(-c2ccn[nH]2)c1 | per treatment cycle, refers to: hemoglobin decrease | human patients | oral, dose not given, 28 day cycle, dose-finding study |  | grade ≥3 event rate | 0.9% |
| CNCCOC12CC3(C)CC(C)(CC(Cn4ncc(-c5ccc(N6CCc7cccc(C(=O)Nc8nc9ccccc9s8)c7C6)nc5C(=O)O)c4C)(C3)C1)C2 |  | anaesthetised male beagle dogs | intravenous bolus, 0.03 mg/kg, 15 min | reference: baseline | cardiac output change | 4% |
| CNc1ccc(-c2nc3ccc(O)cc3s2)cc1 [carbon-11 labelled] | microPET/CT imaging | APP/PS1 mouse, AD model, brain | intravenous, 10 min |  | SUV | 0.436 ± 0.172 |
| C[C@H]1CN(C(=O)CC#N)[C@]12CCN(c1ncnc3[nH]ccc13)C2 |  | healthy human | oral, 1.5 mg, single dose |  | subjects with Nausea | 0% |
| COc1nnc2ccc(N3CCC(c4ccc(OCCN5CCN(C)C(=O)[C@H]5C)cc4)CC3)nn12 |  | patients, plasma | oral, 10 mg twice daily, single dose, monotherapy |  | AUC(0-t) | 0.156 µM·h |
| O=C(CCCCCCC(=O)Nc1ccc(CC[18F])cc1)NO |  | athymic nu/nu male mice, LNCaP xenograft, heart | intravenous, 0.5 h |  | tissue uptake | 4.3 ± 0.7 %ID/g |
| OCC1=C[C@@H](O)[C@@H]2C=CO[C@@H](O[C@@H]3O[C@H](CO)[C@@H](O)[C@H](O)[C@H]3O)[C@H]12 | post-procedure stability | rat plasma | 8 ng/mL, 1 h, room temperature |  | accuracy | 84.1% |
| NC1(C(=O)N[C@@H](CCO)c2ccc(Cl)cc2)CCN(c2nc[nH]c3nccc2-3)CC1 |  | human mCRPC patients | oral, twice daily, 4/7 days, any grade, treatment-related, with: enzalutamide 160 mg daily |  | weight decreased incidence | 13.3% |
| Cn1cc(Nc2nccc(-c3ccc4c(c3)CN(C3COC3)CC[C@H]4NC(=O)c3cn(C(C)(C)C)nn3)n2)cn1 | refers to: plasma cell count | human, clinical trial, whole blood | 150 mg twice daily, follow-up |  | percent change from baseline | 19.7% |
| c1ccc2cc3c(ccc4ccccc43)cc2c1 |  | PDMS-water partitioning | PAH compilation | reference: maximum over minimum K | literature range factor | 12 |
| O=C(O)CCN1C(=O)CSC1=S |  | Bama miniature pig, excised skin | 10 mM, 8 h, 30% ethanol in saline donor |  | permeation rate | 0.92 ± 0.054 µmol/cm²/h |
| O=C(/C=C/CCc1ccc(O)cc1)/C=C/c1ccc(O)cc1 |  | nude mouse MCF7 xenograft | 20 mg/kg, day 6 |  | body weight | 20.5 ± 1.04 g |
| O=C(c1cccnc1-c1ccncc1)N1CCC(O)(Cc2ccccc2)CC1 |  | healthy Japanese adults, plasma | oral, 200 mg single dose |  | Cmax/dose | 4.25 ng/mL/mg |
| Cc1c(-c2ccc(N3CCc4cccc(C(=O)Nc5nc6ccccc6s5)c4C3)nc2C(=O)O)cnn1CC12CC3(C)CC(C)(C1)CC(OCCNCC[C@H](O)CO)(C3)C2 |  | beagle dog, male, anaesthetised | intravenous infusion, 0.3 mg/kg/min, 120 (unit not given) | reference: vehicle | heart rate change | -16% |
| CC(C)[C@@H](CS(=O)(=O)C(C)C)N1C(=O)[C@@](C)(CC(=O)O)C[C@H](c2cccc(Cl)c2)[C@H]1c1ccc(Cl)cc1 |  | FVB mouse, Abcb1a/b and Abcg2 knockout, spinal cord, plasma | oral, 20 mg/kg, unit not given | reference: knockout Kp over wild-type Kp | spinal cord distribution advantage | 17.3 |
| CNC(=O)c1ccc(-c2cnc3ncc(Cc4ccc5ncccc5c4)n3n2)cc1F |  | gastric cancer patients | oral, 600 mg twice daily, all grades RP2D expansion |  | abdominal pain incidence | 33% |
